Measured values pooled from the literature.
Protocols differ between the studies behind these lines.
USP51: Ubiquitin carboxyl-terminal hydrolase 51 (USP51, Homo sapiens, UniProt Q70EK9)
UniProt Q70EK9, sequence (whole entry, looked up): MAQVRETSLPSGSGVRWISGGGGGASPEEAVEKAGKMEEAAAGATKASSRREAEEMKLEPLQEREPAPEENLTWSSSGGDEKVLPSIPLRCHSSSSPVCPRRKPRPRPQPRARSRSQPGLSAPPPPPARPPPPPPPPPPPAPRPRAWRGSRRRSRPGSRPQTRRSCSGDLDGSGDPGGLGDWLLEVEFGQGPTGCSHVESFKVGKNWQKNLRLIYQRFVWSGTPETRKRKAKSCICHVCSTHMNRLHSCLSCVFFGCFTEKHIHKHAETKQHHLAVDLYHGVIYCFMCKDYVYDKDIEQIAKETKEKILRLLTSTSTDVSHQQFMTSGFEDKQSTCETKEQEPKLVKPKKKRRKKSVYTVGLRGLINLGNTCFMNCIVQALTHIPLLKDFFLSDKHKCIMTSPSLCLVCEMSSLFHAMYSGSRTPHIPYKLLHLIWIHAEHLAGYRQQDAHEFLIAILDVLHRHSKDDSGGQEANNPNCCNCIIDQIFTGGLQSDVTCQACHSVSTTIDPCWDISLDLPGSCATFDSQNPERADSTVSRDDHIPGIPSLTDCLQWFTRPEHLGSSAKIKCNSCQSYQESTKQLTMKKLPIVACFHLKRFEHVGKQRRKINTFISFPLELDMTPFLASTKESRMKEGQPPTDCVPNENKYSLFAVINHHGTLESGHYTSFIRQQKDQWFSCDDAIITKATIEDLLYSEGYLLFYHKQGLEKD
UniProt Q00535, sequence (whole entry, looked up): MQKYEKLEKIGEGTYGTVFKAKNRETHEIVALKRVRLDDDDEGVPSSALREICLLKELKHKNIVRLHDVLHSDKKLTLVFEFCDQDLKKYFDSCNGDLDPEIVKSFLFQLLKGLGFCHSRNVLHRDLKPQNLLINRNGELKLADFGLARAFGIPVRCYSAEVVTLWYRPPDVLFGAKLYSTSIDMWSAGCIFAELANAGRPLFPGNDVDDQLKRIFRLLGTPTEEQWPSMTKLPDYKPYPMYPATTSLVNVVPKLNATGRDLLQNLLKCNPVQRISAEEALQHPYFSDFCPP
UniProt Q14004, sequence (whole entry, looked up): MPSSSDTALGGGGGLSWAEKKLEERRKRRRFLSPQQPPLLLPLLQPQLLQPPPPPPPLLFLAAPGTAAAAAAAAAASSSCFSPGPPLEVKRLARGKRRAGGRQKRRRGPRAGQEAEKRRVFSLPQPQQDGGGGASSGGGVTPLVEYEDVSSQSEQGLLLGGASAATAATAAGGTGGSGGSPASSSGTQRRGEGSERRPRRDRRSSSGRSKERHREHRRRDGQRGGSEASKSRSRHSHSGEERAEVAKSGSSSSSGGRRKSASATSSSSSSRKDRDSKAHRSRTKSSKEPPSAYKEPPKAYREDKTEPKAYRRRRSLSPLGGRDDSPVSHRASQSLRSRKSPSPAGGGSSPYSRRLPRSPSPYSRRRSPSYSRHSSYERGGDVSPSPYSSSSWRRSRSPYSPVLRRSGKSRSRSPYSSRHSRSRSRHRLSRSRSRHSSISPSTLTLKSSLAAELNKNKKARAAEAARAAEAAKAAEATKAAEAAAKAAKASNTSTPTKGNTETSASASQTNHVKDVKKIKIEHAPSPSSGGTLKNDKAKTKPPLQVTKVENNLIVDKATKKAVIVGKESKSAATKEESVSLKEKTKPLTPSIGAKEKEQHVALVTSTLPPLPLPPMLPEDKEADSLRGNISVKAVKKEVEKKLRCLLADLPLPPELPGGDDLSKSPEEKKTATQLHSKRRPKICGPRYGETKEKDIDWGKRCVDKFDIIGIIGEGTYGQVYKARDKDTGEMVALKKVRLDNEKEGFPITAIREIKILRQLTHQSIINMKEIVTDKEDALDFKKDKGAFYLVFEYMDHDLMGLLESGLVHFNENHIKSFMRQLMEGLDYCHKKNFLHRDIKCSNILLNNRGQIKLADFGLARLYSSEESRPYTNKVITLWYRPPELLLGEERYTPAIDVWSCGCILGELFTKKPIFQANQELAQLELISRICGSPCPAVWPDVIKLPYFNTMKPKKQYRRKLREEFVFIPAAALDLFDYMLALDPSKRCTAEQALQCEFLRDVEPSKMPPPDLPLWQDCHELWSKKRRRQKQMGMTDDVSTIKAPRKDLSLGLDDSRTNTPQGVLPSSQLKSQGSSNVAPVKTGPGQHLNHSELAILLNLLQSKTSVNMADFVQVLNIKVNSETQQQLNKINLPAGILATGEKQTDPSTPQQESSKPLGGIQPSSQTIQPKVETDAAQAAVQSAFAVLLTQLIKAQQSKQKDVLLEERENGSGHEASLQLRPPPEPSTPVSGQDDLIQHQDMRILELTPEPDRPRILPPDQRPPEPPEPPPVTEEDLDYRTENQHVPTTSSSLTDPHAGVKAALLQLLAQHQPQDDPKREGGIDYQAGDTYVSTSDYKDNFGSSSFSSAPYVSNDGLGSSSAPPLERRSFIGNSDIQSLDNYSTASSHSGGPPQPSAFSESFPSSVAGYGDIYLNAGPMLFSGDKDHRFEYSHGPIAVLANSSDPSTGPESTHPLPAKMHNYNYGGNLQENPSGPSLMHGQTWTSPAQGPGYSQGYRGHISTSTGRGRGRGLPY
UniProt P49841, sequence (whole entry, looked up): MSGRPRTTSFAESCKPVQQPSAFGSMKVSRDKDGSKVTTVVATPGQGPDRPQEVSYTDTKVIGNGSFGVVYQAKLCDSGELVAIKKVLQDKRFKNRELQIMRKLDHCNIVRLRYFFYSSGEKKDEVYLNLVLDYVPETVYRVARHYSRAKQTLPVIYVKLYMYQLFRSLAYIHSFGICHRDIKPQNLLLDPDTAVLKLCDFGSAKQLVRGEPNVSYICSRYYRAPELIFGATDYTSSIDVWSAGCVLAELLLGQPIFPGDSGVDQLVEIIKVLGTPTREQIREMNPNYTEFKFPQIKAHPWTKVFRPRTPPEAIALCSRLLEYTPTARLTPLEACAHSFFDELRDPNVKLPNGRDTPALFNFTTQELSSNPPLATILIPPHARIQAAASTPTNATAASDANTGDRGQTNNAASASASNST
UniProt Q13547, sequence (whole entry, looked up): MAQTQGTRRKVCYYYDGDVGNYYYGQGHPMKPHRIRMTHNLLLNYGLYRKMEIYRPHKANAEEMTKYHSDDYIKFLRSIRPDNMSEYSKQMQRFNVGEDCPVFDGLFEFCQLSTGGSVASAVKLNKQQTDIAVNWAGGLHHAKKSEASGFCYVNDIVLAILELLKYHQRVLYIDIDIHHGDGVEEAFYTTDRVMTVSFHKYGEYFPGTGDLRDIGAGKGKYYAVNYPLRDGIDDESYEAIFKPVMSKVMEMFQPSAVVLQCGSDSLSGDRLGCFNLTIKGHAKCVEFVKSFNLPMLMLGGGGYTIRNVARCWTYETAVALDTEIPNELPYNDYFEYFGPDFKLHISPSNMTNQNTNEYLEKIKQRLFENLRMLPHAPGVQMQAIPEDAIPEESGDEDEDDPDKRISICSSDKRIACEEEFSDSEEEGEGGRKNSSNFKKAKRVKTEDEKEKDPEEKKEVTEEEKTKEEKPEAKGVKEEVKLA
UniProt Q15375, sequence (whole entry, looked up): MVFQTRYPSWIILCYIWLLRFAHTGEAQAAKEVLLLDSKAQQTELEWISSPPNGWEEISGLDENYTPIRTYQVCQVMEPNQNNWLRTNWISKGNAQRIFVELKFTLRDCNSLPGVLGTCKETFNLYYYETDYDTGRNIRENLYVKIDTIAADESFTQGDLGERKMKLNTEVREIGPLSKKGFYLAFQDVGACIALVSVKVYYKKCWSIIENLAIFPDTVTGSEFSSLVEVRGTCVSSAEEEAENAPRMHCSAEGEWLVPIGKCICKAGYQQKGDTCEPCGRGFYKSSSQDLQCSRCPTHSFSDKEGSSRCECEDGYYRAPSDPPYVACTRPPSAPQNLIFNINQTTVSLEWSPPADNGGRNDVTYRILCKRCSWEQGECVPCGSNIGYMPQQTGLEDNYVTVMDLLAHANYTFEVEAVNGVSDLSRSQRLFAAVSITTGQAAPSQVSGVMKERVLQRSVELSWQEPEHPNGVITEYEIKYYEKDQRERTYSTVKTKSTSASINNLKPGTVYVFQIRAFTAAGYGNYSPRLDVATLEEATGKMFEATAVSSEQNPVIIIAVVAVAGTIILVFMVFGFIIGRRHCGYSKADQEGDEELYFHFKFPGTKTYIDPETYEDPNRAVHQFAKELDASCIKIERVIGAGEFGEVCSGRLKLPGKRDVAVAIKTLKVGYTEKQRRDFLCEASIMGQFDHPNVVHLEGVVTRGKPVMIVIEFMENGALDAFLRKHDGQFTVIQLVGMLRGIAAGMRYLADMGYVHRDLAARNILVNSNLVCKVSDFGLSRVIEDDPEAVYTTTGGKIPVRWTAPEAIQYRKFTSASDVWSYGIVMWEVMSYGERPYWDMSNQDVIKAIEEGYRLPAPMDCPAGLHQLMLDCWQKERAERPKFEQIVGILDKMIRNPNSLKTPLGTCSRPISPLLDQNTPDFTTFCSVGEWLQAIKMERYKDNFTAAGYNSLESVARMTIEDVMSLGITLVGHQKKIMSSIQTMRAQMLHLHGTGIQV
UniProt P35354, sequence (whole entry, looked up): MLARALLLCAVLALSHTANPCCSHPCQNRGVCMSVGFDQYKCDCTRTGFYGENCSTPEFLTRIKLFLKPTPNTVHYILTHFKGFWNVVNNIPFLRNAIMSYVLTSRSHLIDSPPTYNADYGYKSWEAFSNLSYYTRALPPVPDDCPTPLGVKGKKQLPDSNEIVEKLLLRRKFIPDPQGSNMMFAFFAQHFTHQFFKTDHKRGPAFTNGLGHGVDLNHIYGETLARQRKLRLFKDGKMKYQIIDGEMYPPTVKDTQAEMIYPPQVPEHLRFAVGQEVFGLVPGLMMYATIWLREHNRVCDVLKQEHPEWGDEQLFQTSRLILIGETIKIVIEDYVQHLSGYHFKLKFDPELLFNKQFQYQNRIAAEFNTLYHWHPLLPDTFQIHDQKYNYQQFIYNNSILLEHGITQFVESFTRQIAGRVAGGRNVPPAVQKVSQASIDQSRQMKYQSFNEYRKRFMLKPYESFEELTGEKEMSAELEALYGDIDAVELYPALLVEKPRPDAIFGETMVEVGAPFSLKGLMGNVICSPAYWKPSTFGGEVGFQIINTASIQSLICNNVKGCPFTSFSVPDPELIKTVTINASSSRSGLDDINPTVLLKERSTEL

`CNc1ncc2c(/C=C/C(=O)N3CCC(OC)CC3)nn(Cc3cccc(C(F)(F)F)c3)c2n1` has a remaining activity of 87% (MAPK11 (Homo sapiens, UniProt Q15759); enzyme activity, inhibitor, radiometric; 1 µM).
For `Cc1cc([C@@H](C)Nc2ccccc2C(=O)O)c2nc(N3CCC(F)(F)CC3)c(C#N)c(=O)n2c1`, the remaining binding was 100% (KIT (Homo sapiens, UniProt P10721, D816V); binding, competition with immobilised ligand; 10 µM).
The inhibition of `O=C1NC(=O)C(c2ccccc2)(c2ccccc2)N1` is reported as 12.5% (SCN1A (Homo sapiens, UniProt P35498); ion current, inhibitor, patch clamp; 30 µM).
The remaining binding of `C=CC(=O)N1CCC(COCC(=O)N2CCN(c3nc(-c4cnc(N)nc4C(F)F)nc(N4CCOC[C@@H]4C)n3)CC2)CC1` is reported as 92% (MAP3K9 (Homo sapiens, UniProt P80192); binding, competition with immobilised ligand; 1 µM).
`CC[C@H](C)[C@H](NC(=O)[C@H](CCC(N)=O)NC(=O)[C@@H](NC(=O)[C@H](CCSC)NC(=O)[C@H](CCCCN)NC(=O)[C@H](CO)NC(=O)[C@@H](NC(=O)[C@H](CCSC)NC(=O)[C@H](CC(C)C)NC(=O)[C@H](CC(N)=O)NC(=O)[C@@H](NC(=O)[C@@H](NC(=O)[C@H](CO)NC(=O)[C@H](CC(C)C)NC(=O)[C@H](C)NC(=O)[C@H](CCCNC(=N)N)NC(=O)[C@H](CCC(=O)O)NC(=O)[C@H](Cc1ccc(O)cc1)NC(=O)[C@H](Cc1ccccc1)NC(=O)[C@H](C)NC(=O)[C@H](CC(N)=O)NC(=O)[C@@H](N)CCCCN)[C@@H](C)CC)[C@@H](C)CC)[C@@H](C)O)C(C)C)C(=O)N[C@@H](CC(N)=O)C(=O)N[C@H](C(=O)O)C(C)C` has an inhibition of 1% (GSK3B (Homo sapiens, UniProt P49841); enzyme activity, inhibitor, radiometric; 1 µM).
With `CN1CC(Oc2cnc(C#N)cc2-c2ccn3nc(NC(=O)C4CC4)cc3c2)C1` the inhibition was -3% (EPHA7 (Homo sapiens, UniProt Q15375); enzyme activity, inhibitor; 1 µM).
With `NC/C(=C\F)COc1cccc(Cn2c(=S)[nH]c(=O)c3[nH]cnc32)c1` the inhibition was 98.6% (Myeloperoxidase (MPO, Homo sapiens, UniProt P05164); enzyme activity, inhibitor, fluorescence; 1.667 µM).
`CCCCC(=O)Nc1ccc(-c2ccc3ncn(CCC)c(=O)c3c2)cn1` gave a remaining binding of 100% (EGFR (Homo sapiens, UniProt P00533, G719C); binding, competition with immobilised ligand; 0.5 µM).
`CC[C@H](C)[C@H](NC(=O)[C@H](CCC(N)=O)NC(=O)[C@H](CC(C)C)NC(=O)[C@H](CCSC)NC(=O)[C@H](CCCCN)NC(=O)[C@H](CO)NC(=O)[C@H](CO)NC(=O)[C@H](CCSC)NC(=O)[C@H](CC(C)C)NC(=O)[C@H](CC(N)=O)NC(=O)[C@@H](NC(=O)[C@@H](NC(=O)[C@H](CO)NC(=O)[C@H](CC(C)C)NC(=O)[C@H](CS)NC(=O)[C@H](CCCNC(=N)N)NC(=O)[C@H](CC(=O)O)NC(=O)[C@H](Cc1c[nH]c2ccccc12)NC(=O)[C@H](Cc1ccccc1)NC(=O)[C@H](C)NC(=O)[C@H](CCC(=O)O)NC(=O)[C@@H](N)CCCCN)C(C)C)[C@@H](C)CC)C(=O)N[C@@H](CC(N)=O)C(=O)N[C@@H](C)C(=O)O` has an inhibition of 29% (Cyclin-dependent kinase 5, with p35 (CDK5, Homo sapiens, UniProt Q00535); enzyme activity, inhibitor, radiometric; 100 µM).
With `O=C(O)c1ccccc1` the inhibition was 12% (USP51; enzyme activity, inhibitor; 5 µM).
`O=c1cc(-c2ccc(O)c(O)c2)oc2cc(O)cc(O)c12` has an inhibition of 36.2% (PTGS2 (Homo sapiens, UniProt P35354); enzyme activity, inhibitor; 0.24 µg/mL).
The inhibition of `C=CCc1ccc(O)c(-c2cc(CC=C)ccc2O)c1` is reported as 0% (USP51; enzyme activity, inhibitor; 5 µM).
`COc1cc(-c2cncc3c2CN(C)Cc2cc(N4CCNCC4)ccc2-3)cc(OC)c1OC` has a remaining activity of 118% (Cyclin-dependent kinase 13, with cyclin K (CDK13, Homo sapiens, UniProt Q14004); enzyme activity, inhibitor; 1 µM).
With `Cc1cc(OS(=O)(=O)Oc2cccc(C(C)(C)C)c2)cc(C(=O)NO)c1` the inhibition was 8% (HDAC1 (Homo sapiens, UniProt Q13547); enzyme activity, inhibitor, fluorescence; 5 µM).
`CC(=O)Oc1cccc2c1C(=O)c1c(OC(C)=O)cc(C(=O)O)cc1C2=O` has an inhibition of 32% (USP51; enzyme activity, inhibitor; 5 µM).

For quick reference, copied from above:
The remaining binding of `C=CC(=O)N1CCC(COCC(=O)N2CCN(c3nc(-c4cnc(N)nc4C(F)F)nc(N4CCOC[C@@H]4C)n3)CC2)CC1` is reported as 92% (MAP3K9 (Homo sapiens, UniProt P80192); binding, competition with immobilised ligand; 1 µM).
